Published values pooled from the literature.
Numbered parts are unrelated; each lists some results of a single study. “And” joins repeats or separate records; there may be more than shown.
Sequence of UniProt P36896 (whole entry, looked up): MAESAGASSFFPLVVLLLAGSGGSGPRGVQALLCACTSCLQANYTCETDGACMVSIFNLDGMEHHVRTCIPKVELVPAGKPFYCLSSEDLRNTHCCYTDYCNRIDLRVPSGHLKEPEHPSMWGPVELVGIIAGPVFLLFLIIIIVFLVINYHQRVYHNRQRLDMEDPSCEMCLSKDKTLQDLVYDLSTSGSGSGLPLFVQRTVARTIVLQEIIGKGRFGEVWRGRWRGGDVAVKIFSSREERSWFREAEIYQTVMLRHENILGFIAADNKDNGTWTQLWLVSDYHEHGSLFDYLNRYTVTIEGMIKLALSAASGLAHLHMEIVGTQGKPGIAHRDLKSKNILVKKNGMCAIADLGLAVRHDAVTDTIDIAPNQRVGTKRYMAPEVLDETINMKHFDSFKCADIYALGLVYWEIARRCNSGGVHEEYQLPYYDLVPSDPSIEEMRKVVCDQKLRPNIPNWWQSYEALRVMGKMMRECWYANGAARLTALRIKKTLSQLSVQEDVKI

Sample 1
Structure (SMILES): COc1ccc(-c2c(Nc3ccccn3)[nH]c3c(C4=CCCCC4)c(-c4ccccc4)nn3c2=O)cc1
Host: human
Sample: plasma
Route: oral
LC-MS/MS; 400 mg once daily — terminal half-life: 22.7 h and 22.6 h and 18.1 h and 9.28 h.
LC-MS/MS; 50 mg once daily — terminal half-life: 43.2 h.
It gave 17.1 h for terminal half-life (LC-MS/MS non-compartmental; 200 mg, day -3 of cycle 0, single dose, median).
200 mg twice daily — terminal half-life: 157 h and 228 h and 91.3 h.

Sample 2
Cell line: normal-adjacent organoid sample G
Technique: CellTiter-Glo
Tested at: 1 µM
Notes: replicate mean
Baseline: DMSO
With `C[C@H](c1ccnc(Nc2nc3ccc(-c4cc(N(C)C)ncn4)cc3[nH]2)c1)N1CCN(C(=O)CC(F)(F)F)CC1` the viability was 101%.
With `C[C@H](c1ccc(F)cc1)N(Cc1cccc(C(=O)O)c1)C(=O)c1cnc2ccccc2c1` the viability was 105%.
`CCS(=O)(=O)c1cc2cc(C[C@](O)(CC(C)(C)c3ccc(F)cc3C(N)=O)C(F)(F)F)[nH]c2cn1` has a viability of 93.4%.
`Cc1cc(-n2nc(Cc3cc(F)cc(C(F)(F)F)c3)nc2C)ccc1C(N)=O` has a viability of 103%.
With `CN1CCN(C(=O)C(C)(C)c2ccc(C(=O)Nc3cn4cc(-c5ccncc5)ccc4n3)cc2)CC1` the viability was 54.1%.
`CCCCN(Cc1ccccc1)C(=O)c1ccc(S(=O)(=O)Nc2ccccc2)cc1` has a viability of 99.9%.
The viability of `CNCc1ccccc1-c1csc([C@@H](C)Nc2nc(C)nc3cc(OC)c(OC)cc23)c1` is reported as 72.4%.
With `CC(C)(O)c1cncc(-c2nc3ccc(F)cc3n2C2CC2)c1` the viability was 109%.

Sample 3
Cell line: mouse MPNST tumor cells
Technique: high-content immunofluorescence imaging
Measured: nuclear SOX9
Tested at: 10 µM
Time: 12 h
Notes: mean of 2 replicates
Baseline: DMSO control
Reading: higher = more nuclear SOX9
`CNCc1ccc(-c2[nH]c3cc(F)cc4c3c2CCNC4=O)cc1`: “nuclear SOX9 intensity” 183 % of DMSO.
`Nc1nnc(-c2cccc(Cl)c2Cl)c(N)n1` — result for “nuclear SOX9 intensity”: 96 % of DMSO and 98 % of DMSO.
For `c1cc(-c2sc(-c3ccncc3)c(-c3ccncc3)c2-c2ccncc2)ccn1`, “nuclear SOX9 intensity” read 100 % of DMSO.
Under “nuclear SOX9 intensity”, `CCCSc1ccc2[nH]c(NC(=O)OC)nc2c1` is recorded as 156 % of DMSO and 194 % of DMSO.
Under “nuclear SOX9 intensity”, `CCCc1nc2nc(C)c(NS(=O)(=O)c3ccc(C4CCCCC4)cc3)c(=O)n2[nH]1` is recorded as 97.9 % of DMSO.
For `CCOc1cccc(NC(=O)c2ccc(N3CCCC3)c(C(F)(F)F)c2)c1`, “nuclear SOX9 intensity” read 113 % of DMSO.
Under “nuclear SOX9 intensity”, `O=C1c2c(O)cccc2Cc2cccc(O)c21` is recorded as 104 % of DMSO.
`CC1=C(C)C(=O)C(C(C)(C)CC(=O)N(CCCCSC[C@H]2O[C@@H](n3cnc4c(N)ncnc43)[C@H](O)[C@@H]2O)Cc2cccc(-c3ccc(Cl)cc3)c2)=C(C)C1=O` — result for “nuclear SOX9 intensity”: 185 % of DMSO.

Mixed results
With `COc1ccc2c(c[n+](C)c3c4cc5c(cc4ccc23)OCO5)c1OC` the remaining activity was 110% (Activin receptor type-1B (ACVR1B, Homo sapiens, UniProt P36896); enzyme activity, inhibitor; 0.5 µM; baseline: control).

Some of these lines once more (sample 2):
With `C[C@H](c1ccc(F)cc1)N(Cc1cccc(C(=O)O)c1)C(=O)c1cnc2ccccc2c1` the viability was 105%.
The viability of `CNCc1ccccc1-c1csc([C@@H](C)Nc2nc(C)nc3cc(OC)c(OC)cc23)c1` is reported as 72.4%.
`CCS(=O)(=O)c1cc2cc(C[C@](O)(CC(C)(C)c3ccc(F)cc3C(N)=O)C(F)(F)F)[nH]c2cn1` has a viability of 93.4%.
